Results of several laboratories.
Each numbered part is a random draw from the data of one study; scales do not carry over between parts.

Study 1
Target: Sal-like protein 4, full length isoform B (SALL4, Homo sapiens, UniProt Q9UJQ4-2, residues 1-616)
Method: universal PBM
Molecule type: double-stranded DNA, one strand shown
Medium: in vitro
Tested at: not given
Notes: 8-mer, flanks averaged, mean of replicates
Direction: higher = stronger binding
Residues (chain): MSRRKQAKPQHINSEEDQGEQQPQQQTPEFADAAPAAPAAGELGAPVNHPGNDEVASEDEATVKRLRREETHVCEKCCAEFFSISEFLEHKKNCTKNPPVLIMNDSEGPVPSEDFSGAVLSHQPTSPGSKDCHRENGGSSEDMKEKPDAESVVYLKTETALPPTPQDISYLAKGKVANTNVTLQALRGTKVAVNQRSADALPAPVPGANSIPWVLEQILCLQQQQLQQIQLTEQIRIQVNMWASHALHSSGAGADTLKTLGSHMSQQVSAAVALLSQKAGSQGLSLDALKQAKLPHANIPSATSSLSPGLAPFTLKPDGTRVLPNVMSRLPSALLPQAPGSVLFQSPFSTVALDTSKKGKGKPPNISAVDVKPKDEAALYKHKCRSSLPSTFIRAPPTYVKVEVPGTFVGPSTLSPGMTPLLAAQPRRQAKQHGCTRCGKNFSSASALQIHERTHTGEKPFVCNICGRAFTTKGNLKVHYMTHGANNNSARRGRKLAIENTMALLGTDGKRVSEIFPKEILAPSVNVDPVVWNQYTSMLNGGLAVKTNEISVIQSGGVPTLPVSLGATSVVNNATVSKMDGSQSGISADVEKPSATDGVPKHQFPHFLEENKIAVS
The E-score of `CACTGCCA` is reported as -0.0403.
With `AATGACTC` the E-score was 0.0599.
`ATGTGCTG` has an E-score of 0.0378.
For `CCGCTTCA`, the E-score was -0.186.
`GAGTTGAC` gave an E-score of -0.138.
The E-score of `AAGCAATT` is reported as 0.24.
The E-score of `AACCACGG` is reported as -0.267.
`CCCGCACC` gave an E-score of -0.336.
With `CAGGGTCC` the E-score was -0.241.

Study 2
Target: Histone acetyltransferase KAT6A, both winged helices, GST fusion (KAT6A, Homo sapiens, UniProt Q92794, residues 1-181)
Method: protein binding microarray
Molecule type: double-stranded DNA, one strand shown
Medium: in vitro
Tested at: not given
Notes: 8-mer, flanks averaged, mean of 2 arrays, mostly near background
Baseline: not given
Direction: higher = stronger binding
Residues (chain): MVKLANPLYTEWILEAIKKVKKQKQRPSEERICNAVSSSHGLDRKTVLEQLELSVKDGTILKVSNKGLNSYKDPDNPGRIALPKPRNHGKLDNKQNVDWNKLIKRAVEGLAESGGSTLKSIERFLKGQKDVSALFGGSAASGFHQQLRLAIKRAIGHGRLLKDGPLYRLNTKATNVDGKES
`ACTGAGCT` has an E-score of -0.067.
`CGCAAGAG` has an E-score of 0.164.
`CGCTATAA` gave an E-score of 0.132.
`AATTTATG` gave an E-score of -0.0227.
With `CCGGAGTC` the E-score was 0.0903.
For `CCAGGGAG`, the E-score was -0.207.
For `CCGCGTGA`, the E-score was 0.28.
For `GGGGCGCA`, the E-score was 0.117.

Study 3
Target: Interferon regulatory factor 5, full length, phosphomimetic (IRF5, Homo sapiens, UniProt Q13568-2, residues 1-514, K96S/S451D/S453D/S456D/S462D)
Method: protein-binding microarray
Molecule type: double-stranded DNA, one strand shown
Medium: in vitro
Tested at: 250 nM
Notes: 60-bp whole probe
Together with: salmon DNA 0.4 mg/ml
Baseline: random background probes
Direction: higher = stronger binding
Constant ends, left off below: GCCTAGCAC … GTCTTGATTCGCTTGACGCTGCTG
The log fluorescence of `GTTTTTCTCCTATTTAAGACGTGCTAG` is reported as 1.76 z-score.
`TTAGATATCGGGTTTCCATTAGTGCTA` gave a log fluorescence of 2.68 z-score.
The log fluorescence of `TCTGATTTCTCAAACAGCTCGTGCTAG` is reported as 0.422 z-score.
For `TTAGGTCTGCTTATCCTTTAGTGCTAG`, the log fluorescence was -0.179 z-score.
`GACGGTTTCCTTTTTCTGACGTGCTAG` has a log fluorescence of 1.3 z-score.
`GACGGTATCGGTTTCGGTACGTGCTAG` has a log fluorescence of 10.2 z-score.
The log fluorescence of `TTATGGTGTGGAGAAGGCACGTGCTAG` is reported as -0.282 z-score.
For `TCCTGTATGGATGTGTTTTAGTGCTAG`, the log fluorescence was 0.282 z-score.
The log fluorescence of `TTAGGTATCGGTACCGGTTAGTGCTAG` is reported as 6.61 z-score.
The log fluorescence of `GCTGGTCTCTAACTCAAGATGTGCTAG` is reported as -0.348 z-score.
`GACGAACTGAGTTTCGAGACGTGCTAG` has a log fluorescence of 4.65 z-score.
With `TTAGATCTGGGGACTGGATTAGTGCTA` the log fluorescence was -0.44 z-score.

Further values, each from its own experiment
The fold induction of `PhoQ, residues 284 288 289 292 302 303 TSTLRA` is reported as 2.38 (PhoP, residues 12 14 15 18 19 NQFFI (Escherichia coli, UniProt P23836); Sort-seq, refers to: YFP reporter; E. coli; PhoQ-PhoP variant library, together with: 10 µM Mg2+; baseline: high Mg2+ state, higher = stronger signaling).

For quick reference, copied from above (study 3):
For `TCCTGTATGGATGTGTTTTAGTGCTAG`, the log fluorescence was 0.282 z-score.
The log fluorescence of `TTAGGTATCGGTACCGGTTAGTGCTAG` is reported as 6.61 z-score.
The log fluorescence of `GCTGGTCTCTAACTCAAGATGTGCTAG` is reported as -0.348 z-score.
